Experimental data of several laboratories.
Each line is one published result; not all experiments were run side by side. Numbers after ± are the reported error.
MAPK8: Mitogen-activated protein kinase 8 (MAPK8, Homo sapiens, UniProt P45983)

Protein sequences, listed by entry. Tags and fused reporters are not part of them. Lines headed by an entry give the natural chain unless they say otherwise; changes in a name come on top. Residues count along the entry.
UniProt P45983, whole entry: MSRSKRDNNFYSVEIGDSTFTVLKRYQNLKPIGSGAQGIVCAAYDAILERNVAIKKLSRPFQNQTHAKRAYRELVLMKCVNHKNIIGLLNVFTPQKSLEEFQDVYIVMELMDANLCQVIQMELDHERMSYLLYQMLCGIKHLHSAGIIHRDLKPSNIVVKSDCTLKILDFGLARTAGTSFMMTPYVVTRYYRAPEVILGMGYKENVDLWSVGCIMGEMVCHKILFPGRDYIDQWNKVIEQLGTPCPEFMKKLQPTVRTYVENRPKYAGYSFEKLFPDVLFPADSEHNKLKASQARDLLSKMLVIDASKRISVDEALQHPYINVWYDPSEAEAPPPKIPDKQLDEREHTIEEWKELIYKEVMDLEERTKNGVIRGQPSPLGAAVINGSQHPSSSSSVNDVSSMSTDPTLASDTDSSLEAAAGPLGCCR
UniProt P45983, 1-384 isoform 3: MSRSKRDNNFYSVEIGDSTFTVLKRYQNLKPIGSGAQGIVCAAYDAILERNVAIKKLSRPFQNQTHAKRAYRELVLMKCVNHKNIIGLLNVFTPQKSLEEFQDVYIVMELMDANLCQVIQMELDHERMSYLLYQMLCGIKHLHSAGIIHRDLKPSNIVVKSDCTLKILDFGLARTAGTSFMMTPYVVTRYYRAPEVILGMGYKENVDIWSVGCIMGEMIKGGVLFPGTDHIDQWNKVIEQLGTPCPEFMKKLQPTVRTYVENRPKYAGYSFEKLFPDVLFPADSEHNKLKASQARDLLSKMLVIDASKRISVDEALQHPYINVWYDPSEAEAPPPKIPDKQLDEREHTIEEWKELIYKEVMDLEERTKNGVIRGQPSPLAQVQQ
UniProt P47900, whole entry: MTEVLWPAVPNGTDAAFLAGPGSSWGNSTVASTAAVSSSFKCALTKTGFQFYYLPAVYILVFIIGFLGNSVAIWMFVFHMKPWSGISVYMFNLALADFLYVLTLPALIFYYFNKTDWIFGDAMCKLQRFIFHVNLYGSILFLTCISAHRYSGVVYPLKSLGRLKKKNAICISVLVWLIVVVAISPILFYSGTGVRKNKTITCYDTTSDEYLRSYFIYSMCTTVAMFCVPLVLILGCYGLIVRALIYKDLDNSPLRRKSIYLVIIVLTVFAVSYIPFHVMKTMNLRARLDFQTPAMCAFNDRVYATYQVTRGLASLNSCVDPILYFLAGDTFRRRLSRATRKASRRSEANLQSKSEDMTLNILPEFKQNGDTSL
UniProt P09874, whole entry: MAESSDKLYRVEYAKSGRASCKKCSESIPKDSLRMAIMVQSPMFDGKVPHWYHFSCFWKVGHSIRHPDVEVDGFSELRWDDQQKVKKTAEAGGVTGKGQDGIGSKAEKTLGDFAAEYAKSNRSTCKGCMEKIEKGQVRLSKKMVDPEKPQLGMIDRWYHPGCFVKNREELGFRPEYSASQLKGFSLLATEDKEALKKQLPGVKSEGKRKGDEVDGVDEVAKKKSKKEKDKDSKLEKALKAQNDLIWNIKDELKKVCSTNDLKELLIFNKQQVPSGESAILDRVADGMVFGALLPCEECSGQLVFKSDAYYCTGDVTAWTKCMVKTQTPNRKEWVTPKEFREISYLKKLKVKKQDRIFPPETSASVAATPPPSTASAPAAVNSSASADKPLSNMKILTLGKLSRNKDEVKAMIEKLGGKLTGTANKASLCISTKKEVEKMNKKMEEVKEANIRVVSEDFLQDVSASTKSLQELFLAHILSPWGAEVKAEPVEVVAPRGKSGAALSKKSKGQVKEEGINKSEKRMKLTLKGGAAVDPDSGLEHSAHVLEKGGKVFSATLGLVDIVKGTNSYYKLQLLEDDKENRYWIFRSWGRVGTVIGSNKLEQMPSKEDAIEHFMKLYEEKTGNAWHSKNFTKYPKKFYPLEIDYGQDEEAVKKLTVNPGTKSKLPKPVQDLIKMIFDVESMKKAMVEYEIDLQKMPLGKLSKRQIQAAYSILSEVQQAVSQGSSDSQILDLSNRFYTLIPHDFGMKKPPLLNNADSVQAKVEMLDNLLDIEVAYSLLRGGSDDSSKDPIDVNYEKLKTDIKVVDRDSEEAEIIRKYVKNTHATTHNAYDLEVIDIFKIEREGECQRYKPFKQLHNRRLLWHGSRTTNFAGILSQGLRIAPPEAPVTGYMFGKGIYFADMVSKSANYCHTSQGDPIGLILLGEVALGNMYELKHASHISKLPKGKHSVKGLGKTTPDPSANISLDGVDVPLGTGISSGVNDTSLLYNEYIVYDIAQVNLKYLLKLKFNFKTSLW
UniProt Q07440, whole entry P104K/C113S, looked up: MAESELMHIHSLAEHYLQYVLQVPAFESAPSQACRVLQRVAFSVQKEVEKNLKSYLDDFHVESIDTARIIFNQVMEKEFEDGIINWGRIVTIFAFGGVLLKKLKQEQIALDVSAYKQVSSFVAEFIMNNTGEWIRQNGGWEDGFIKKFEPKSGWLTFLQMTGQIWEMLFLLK
UniProt Q04609, whole entry: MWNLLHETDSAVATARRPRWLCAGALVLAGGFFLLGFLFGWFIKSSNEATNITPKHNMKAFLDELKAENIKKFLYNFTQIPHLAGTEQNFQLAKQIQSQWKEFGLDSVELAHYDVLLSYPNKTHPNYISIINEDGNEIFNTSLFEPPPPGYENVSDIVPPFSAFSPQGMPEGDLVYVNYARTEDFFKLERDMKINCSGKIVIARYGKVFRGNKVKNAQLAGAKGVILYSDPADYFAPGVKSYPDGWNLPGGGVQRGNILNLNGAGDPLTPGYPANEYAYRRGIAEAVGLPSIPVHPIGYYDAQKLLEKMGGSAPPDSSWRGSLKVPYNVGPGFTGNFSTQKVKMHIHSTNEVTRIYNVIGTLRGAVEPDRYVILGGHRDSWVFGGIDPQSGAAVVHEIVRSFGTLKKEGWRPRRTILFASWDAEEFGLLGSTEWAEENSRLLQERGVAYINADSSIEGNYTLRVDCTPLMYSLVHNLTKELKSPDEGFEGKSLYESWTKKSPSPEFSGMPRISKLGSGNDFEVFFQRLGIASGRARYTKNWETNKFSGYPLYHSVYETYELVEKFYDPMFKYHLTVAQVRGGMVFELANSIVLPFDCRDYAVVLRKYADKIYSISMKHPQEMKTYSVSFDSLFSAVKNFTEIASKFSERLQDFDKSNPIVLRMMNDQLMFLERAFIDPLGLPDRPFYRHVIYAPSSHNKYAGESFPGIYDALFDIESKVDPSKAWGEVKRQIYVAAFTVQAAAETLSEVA
UniProt P42264, 32-919 limits assumed: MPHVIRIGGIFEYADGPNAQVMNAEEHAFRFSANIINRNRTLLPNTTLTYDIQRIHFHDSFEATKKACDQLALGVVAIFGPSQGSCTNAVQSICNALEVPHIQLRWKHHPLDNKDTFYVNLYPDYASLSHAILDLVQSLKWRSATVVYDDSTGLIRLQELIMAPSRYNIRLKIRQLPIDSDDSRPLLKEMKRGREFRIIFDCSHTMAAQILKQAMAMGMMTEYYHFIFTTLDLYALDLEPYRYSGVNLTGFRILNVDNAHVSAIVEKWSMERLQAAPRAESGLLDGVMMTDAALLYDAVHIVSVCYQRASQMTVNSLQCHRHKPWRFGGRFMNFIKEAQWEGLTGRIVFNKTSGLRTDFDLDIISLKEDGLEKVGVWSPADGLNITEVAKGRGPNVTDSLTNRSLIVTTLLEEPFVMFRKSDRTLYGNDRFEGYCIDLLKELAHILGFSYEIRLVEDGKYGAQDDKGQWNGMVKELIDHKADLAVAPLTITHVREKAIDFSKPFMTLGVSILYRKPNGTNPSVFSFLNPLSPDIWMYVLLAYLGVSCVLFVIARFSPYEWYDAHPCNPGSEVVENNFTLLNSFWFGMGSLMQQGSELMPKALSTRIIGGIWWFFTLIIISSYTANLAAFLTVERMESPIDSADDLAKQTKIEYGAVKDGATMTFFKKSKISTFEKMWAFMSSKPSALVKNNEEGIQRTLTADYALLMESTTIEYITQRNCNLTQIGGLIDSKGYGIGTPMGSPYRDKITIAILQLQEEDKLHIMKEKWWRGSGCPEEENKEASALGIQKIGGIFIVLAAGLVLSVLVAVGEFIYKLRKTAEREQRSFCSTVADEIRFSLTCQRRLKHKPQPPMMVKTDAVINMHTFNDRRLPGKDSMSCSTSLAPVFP
UniProt Q05655, whole entry: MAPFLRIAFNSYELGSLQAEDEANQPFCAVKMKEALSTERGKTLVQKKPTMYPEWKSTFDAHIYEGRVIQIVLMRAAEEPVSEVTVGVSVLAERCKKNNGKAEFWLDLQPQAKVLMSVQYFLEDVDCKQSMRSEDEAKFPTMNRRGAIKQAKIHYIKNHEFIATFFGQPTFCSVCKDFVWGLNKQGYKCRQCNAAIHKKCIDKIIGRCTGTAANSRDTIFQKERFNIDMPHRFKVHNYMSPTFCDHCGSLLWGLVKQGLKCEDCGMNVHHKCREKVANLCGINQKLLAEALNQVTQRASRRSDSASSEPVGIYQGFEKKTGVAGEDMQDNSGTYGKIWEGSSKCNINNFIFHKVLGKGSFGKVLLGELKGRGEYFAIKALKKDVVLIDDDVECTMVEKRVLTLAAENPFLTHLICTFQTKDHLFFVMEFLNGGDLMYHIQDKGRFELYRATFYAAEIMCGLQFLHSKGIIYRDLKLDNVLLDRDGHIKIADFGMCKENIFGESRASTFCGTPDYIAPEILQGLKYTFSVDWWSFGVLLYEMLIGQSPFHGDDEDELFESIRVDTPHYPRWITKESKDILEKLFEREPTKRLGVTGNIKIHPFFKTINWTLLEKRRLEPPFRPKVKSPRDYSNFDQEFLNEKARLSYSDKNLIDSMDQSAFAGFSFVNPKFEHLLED
UniProt Q16539, whole entry: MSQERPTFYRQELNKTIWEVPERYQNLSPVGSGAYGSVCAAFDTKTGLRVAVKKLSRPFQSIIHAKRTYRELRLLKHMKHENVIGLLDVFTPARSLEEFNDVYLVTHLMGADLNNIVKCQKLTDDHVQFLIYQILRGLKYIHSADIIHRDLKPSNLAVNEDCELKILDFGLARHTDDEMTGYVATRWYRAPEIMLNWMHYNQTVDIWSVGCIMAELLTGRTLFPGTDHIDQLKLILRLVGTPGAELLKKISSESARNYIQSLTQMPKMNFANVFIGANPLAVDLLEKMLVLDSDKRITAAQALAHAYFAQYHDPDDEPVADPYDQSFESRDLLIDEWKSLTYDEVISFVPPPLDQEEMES
UniProt Q9R0C9, whole entry: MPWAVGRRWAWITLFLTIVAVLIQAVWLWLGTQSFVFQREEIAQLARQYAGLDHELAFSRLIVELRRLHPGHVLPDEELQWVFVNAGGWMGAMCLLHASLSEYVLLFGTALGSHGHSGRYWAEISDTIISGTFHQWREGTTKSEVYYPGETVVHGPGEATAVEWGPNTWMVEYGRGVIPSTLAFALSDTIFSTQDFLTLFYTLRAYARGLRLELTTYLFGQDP
UniProt P28867, 231-280 limits assumed: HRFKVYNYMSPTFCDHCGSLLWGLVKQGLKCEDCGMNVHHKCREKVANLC
UniProt Q9EP80, whole entry: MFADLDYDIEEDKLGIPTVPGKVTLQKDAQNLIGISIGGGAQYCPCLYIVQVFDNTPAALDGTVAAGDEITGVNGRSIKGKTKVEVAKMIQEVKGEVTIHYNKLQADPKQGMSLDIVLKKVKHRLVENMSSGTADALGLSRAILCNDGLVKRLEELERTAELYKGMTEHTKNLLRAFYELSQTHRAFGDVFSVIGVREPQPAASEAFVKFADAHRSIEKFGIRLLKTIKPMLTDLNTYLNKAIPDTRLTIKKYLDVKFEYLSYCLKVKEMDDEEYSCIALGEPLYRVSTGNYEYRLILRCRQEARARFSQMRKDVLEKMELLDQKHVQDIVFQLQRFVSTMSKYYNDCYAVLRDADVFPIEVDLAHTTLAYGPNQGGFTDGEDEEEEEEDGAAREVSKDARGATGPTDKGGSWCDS

The Ki of `COC(=O)C1(C)C=C(C(=O)Nc2cccc3cccnc23)C(=O)CC1` (stereo not shown) is reported as > 200000 nM (MAPK8; D-peptide displacement, fluorescence polarization).
For `CNc1nc(C#CCCCC(=O)NCCNC(=O)CCCC[C@@H]2SC[C@@H]3NC(=O)N[C@@H]32)nc2c1ncn2[C@H]1C[C@H](OP(=O)(O)O)[C@]2(COP(=O)(O)O)C[C@H]12`, the Ki was > 10000 nM (P2Y purinoceptor 1 (P2RY1, Homo sapiens, UniProt P47900); binding, radioligand binding; Sf9 cell membranes; 30 min, 4 °C, together with: iodinated P2Y1 antagonist radioligand).
With `O=C1OC2CC1N(C(=O)c1cc(Cc3n[nH]c(=O)c4ccccc34)ccc1F)C2` (stereo not shown) the Ki was 5.49 ± 1.68 nM (PARP1 (Homo sapiens, UniProt P09874); tracer displacement; cells).
`Cc1ccc(NC(=O)c2cc3ccccc3c(N=Nc3ccccc3O)c2O)c(C)c1` has a Ki of 700 nM (Bcl-2-related protein A1 (Mus musculus, UniProt Q07440, C113S/P104K); binding, inhibitor, fluorescence polarization; together with: FITC-labelled Noxa peptide).
`CC[N+]1=C(C=CC=CC=CC=C2N(CCCCCC(=O)NCCCC[C@H](NC(=O)N[C@@H](CCC(=O)O)C(=O)O)C(=O)O)c3ccc(S(=O)(=O)O)cc3C2(C)C)C(C)(C)c2cc(S(=O)(=O)[O-])ccc21` has a Ki of 0.001 ± 0.0005 nM (FOLH1 (Homo sapiens, UniProt Q04609); enzyme activity, inhibitor; compound in water, together with: [3H]NAAG 30 nM).
With `O=C(O)c1cc(C(=O)N[C@@H](CS)C(=O)O)cc([C@H]2CCN[C@@H]2C(=O)O)c1` the Ki was 10000 to 50000 nM (Glutamate receptor ionotropic, kainate 3 (Rattus norvegicus, UniProt P42264); binding, radioligand binding; Sf9 membranes; homomeric receptor, together with: [3H]kainate).
`CCCCCCCCC(CCCCC=CCCCCC(CCCCCCCC)C(=O)OCC1(CO)CC(=C(C)C)C(=O)O1)C(=O)OCC1(CO)CC(=C(C)C)C(=O)O1` (racemic) has a Ki of 6.31 ± 1.3 nM (PRKCD (Homo sapiens, UniProt Q05655); binding, [3H]PDBu competition; together with: phosphatidylserine 100 µg/mL).
`C#CCCCCOC(=O)[C@]1(C)C=C(C(=O)OC(C)(C)C)C(=O)CC1` gave a Ki of 1300 nM (MAPK14 (Homo sapiens, UniProt Q16539); D-peptide displacement, fluorescence polarization).
`CCCCCCCCCCCCCC[C@@H](O)[C@@H](O)[C@H](CO[C@H]1O[C@H](CO)[C@H](O)[C@H](O)[C@H]1O)NC(=O)CCCCCCCCCCc1ccc(C(F)(F)F)cc1` gave a Ki of 4400 ± 1300 nM (Cd1d1, dimeric Ig fusion (Mus musculus, UniProt P11609); binding, competitive microarray binding; together with: printed glycolipid 100 µM).
`C/C(=N\OCCN1CCC(N2CCOCC2)CC1)c1ccc(C(F)(F)F)cc1` has a Ki of 136 ± 5.16 nM (Sigmar1 (Rattus norvegicus, UniProt Q9R0C9); radioligand binding; rat).
With `CCCCCCCCC(CCCC=CCCCC(CCCCCCCC)C(=O)OCC1(CO)CC(=C(C)C)C(=O)O1)C(=O)OCC1(CO)CC(=C(C)C)C(=O)O1` (racemic) the Ki was 1.17 ± 0.05 nM (Protein kinase C delta type, C1b domain (Prkcd, Mus musculus, UniProt P28867); binding, [3H]PDBu competition; 5 min, 37 °C, together with: phosphatidylserine 100 µg/mL).
With `CCOC(=O)NC(=O)/C(C#N)=C/c1ccc(Cl)c([N+](=O)[O-])c1` the Ki was 22000 ± 6100 nM (PRKCA-binding protein, PDZ domain (Pick1, Rattus norvegicus, UniProt Q9EP80); binding, fluorescence polarization; together with: labelled hDAT C-terminal peptide).
The Ki of `Cc1ncsc1-c1ccc(CNC(=O)[C@@H]2C[C@@H](O)CN2C(=O)c2cccc(Br)c2)cc1` is reported as 19900 nM (von Hippel-Lindau disease tumor suppressor, with elongin B, C (VHL, Homo sapiens, UniProt P40337); inhibitor, fluorescence polarization; VHL-elonginB-elonginC complex; 1% DMSO, together with: FAM-DEALA-Hyp-YIPD peptide).
For `O=C(O)c1cc(C(=O)N2CCC[C@H]2C(=O)O)cc([C@H]2CCN[C@@H]2C(=O)O)c1`, the Ki was 1100 nM (NMDA receptor (rat); binding, radioligand binding; rat cortical synaptosomes; together with: [3H]CGP39653).
`COC(=O)C1(C)C=C(C(=O)NC(C)(C)CO)C(=O)CC1` (stereo not shown) has a Ki of > 200000 nM (MAPK8; D-peptide displacement, fluorescence polarization).
`COC(=O)C1(C)C=C(C(=O)Nc2cccc(C(=O)Nc3ccc(Nc4nccc(-c5cccnc5)n4)c(C)c3)c2)C(=O)C1` (stereo not shown) gave a Ki of 1.6 nM (MAPK8; SPR two-step reversible model).

For quick reference, copied from above:
The Ki of `Cc1ncsc1-c1ccc(CNC(=O)[C@@H]2C[C@@H](O)CN2C(=O)c2cccc(Br)c2)cc1` is reported as 19900 nM (von Hippel-Lindau disease tumor suppressor, with elongin B, C (VHL, Homo sapiens, UniProt P40337); inhibitor, fluorescence polarization; VHL-elonginB-elonginC complex; 1% DMSO, together with: FAM-DEALA-Hyp-YIPD peptide).
With `O=C(O)c1cc(C(=O)N[C@@H](CS)C(=O)O)cc([C@H]2CCN[C@@H]2C(=O)O)c1` the Ki was 10000 to 50000 nM (Glutamate receptor ionotropic, kainate 3 (Rattus norvegicus, UniProt P42264); binding, radioligand binding; Sf9 membranes; homomeric receptor, together with: [3H]kainate).
